Measured values from different studies.
“And” joins repeats or separate records; there may be more than shown. ± gives the spread as reported.

Compound	test	test system	conditions	scale	measurement	result
CC(C)C[C@H](NC(=O)[C@H](CCCCN)NC(=O)OCC1c2ccccc2-c2ccccc21)C(=O)N[C@H](C(=O)N[C@@H](Cc1ccccc1)C(=O)N[C@@H](Cc1ccccc1)C(=O)N[C@@H](CCCCN)C(=O)NCC(=O)N[C@@H](Cc1ccccc1)C(=O)N[C@@H](C)C(=O)N[C@@H](Cc1c[nH]c2ccccc12)C(=O)N[C@@H](CC(N)=O)C(=O)N[C@H](C(=O)N[C@H]1CSSC[C@@H](C(=O)N[C@@H](Cc2c[nH]cn2)C(=O)N[C@@H](CCCNC(=N)N)C(=O)N[C@@H](CCCNC(=N)N)C(=O)N[C@@H](C)C(=O)N[C@@H](CC(N)=O)C(N)=O)NC(=O)[C@H](C(C)C)NC(=O)[C@H](CCCNC(=N)N)NC(=O)[C@H](C(C)C)NC(=O)CNC(=O)[C@H](CC(N)=O)NC(=O)[C@H](CCCNC(=N)N)NC(=O)[C@H](Cc2ccc(O)cc2)NC(=O)[C@H](C(C)C)NC1=O)C(C)C)C(C)C		ICR mice, serum	intraperitoneal, 5 mg/kg, day 5		calcium	1.39 ± 0.04 mmol/L
C[C@@H]1NC(=O)[C@H](CCCCNC(=O)CO/N=C/C(=O)NCCCC[C@@H]2NC(=O)[C@@H](Cc3ccccc3)NC(=O)[C@H](CC(=O)O)NC(=O)CNC(=O)[C@H](CCCNC(=N)N)NC2=O)NC(=O)CNC(=O)[C@@H]2CCCN2C(=O)[C@H](CCCCNC(=O)CO/N=C/C(=O)NCCCC[C@@H]2NC(=O)[C@@H](Cc3ccccc3)NC(=O)[C@H](CC(=O)O)NC(=O)CNC(=O)[C@H](CCCNC(=N)N)NC2=O)NC(=O)[C@H](CCCCNC(=O)CCNC(=O)CCNC(=O)CCNC(=O)[C@H](CCCCN)NC(=O)[C@H](Cc2ccccc2)NC(=O)CNC(=O)CN2CCCNCCNCCCNCC2)NC(=O)[C@H](CCCCNC(=O)CO/N=C/C(=O)NCCCC[C@@H]2NC(=O)[C@@H](Cc3ccccc3)NC(=O)[C@H](CC(=O)O)NC(=O)CNC(=O)[C@H](CCCNC(=N)N)NC2=O)NC(=O)CNC(=O)[C@@H]2CCCN2C(=O)[C@H](CCCCNC(=O)CO/N=C/C(=O)NCCCC[C@@H]2NC(=O)[C@@H](Cc3ccccc3)NC(=O)[C@H](CC(=O)O)NC(=O)CNC(=O)[C@H](CCCNC(=N)N)NC2=O)NC1=O [copper-64 labelled]		normal mice, lung	intravenous, 0.74 MBq, 3 h post-injection		tissue uptake	9.44 ± 1.54 %ID/g
CC(=O)c1c(C)c2cnc(Nc3ccc(C4CCN(CCS(C)(=O)=O)CC4)cn3)nc2n(C2CCCC2)c1=O		HR+/HER2- advanced breast cancer patients	oral, 100 mg		patients with serious AE	33.3%
O=S(=O)(Nc1ccccc1)c1ccc(NC(=S)Nc2ccccc2)cc1		mouse, female, blood	oral, 5 mg/kg daily, 14 days		mean corpuscular volume	49 fL
COc1ccc(CCC2CCCC(CCc3ccc(OC)cc3)N2C[C@@H](O)CO)cc1.Cl (stereo in doubt)		rabbit Purkinje fibres	0.3 µM, cycle length 1 s	baseline: baseline	action potential amplitude change	-1 ± 4.4 mV
CC(C)n1c(C2CCNCC2)nc2c([N+](=O)[O-])c(Br)c(Br)cc21	item: Nausea	AML patients	125 mg		adverse events any grade	49%
CN1CCN(S(=O)(=O)c2cc([N+](=O)[O-])ccc2N(CCOS(C)(=O)=O)CCOS(C)(=O)=O)CC1		NSG mice female, plasma	intraperitoneal, 25 mg/kg, 0.75 h		concentration	800 nM
O=c1ccc2ncc(=O)n3c2n1C[C@H]3CN1CCC(NCc2cc3c(cn2)OCCC3)CC1		healthy human volunteers	oral, 1500 mg, rifampicin cohort, together with: rifampicin 600 mg		incidence of burning sensation	0%
CC[C@H](C)[C@H](NC(=O)[C@H](Cc1ccccc1)NC(=O)[C@H](CCC(=O)O)NC(=O)[C@H](CCCNC(=N)N)NC(=O)[C@H](C)NC(=O)[C@H](C)NC(=O)[C@H](CCC(N)=O)NC(=O)[C@H](CCC(=O)O)NC(=O)[C@H](CCC(=O)O)NC(=O)[C@H](CC(C)C)NC(=O)[C@H](Cc1ccc(O)cc1)NC(=O)[C@H](CO)NC(=O)[C@H](CO)NC(=O)[C@@H](NC(=O)[C@H](CC(=O)O)NC(=O)[C@H](CO)NC(=O)[C@@H](NC(=O)[C@H](Cc1ccccc1)NC(=O)[C@@H](NC(=O)CNC(=O)[C@H](CCC(=O)O)NC(=O)[C@H](C)NC(=O)CCc1cnc[nH]1)[C@@H](C)O)[C@@H](C)O)C(C)C)C(=O)N[C@@H](C)C(=O)N[C@@H](Cc1c[nH]c2ccccc12)C(=O)N[C@@H](CC(C)C)C(=O)N[C@H](C(=O)N[C@@H](CCCNC(=N)N)C(=O)NCC(=O)N[C@@H](CCCNC(=N)N)C(=O)N[C@@H](CCCCNC(=O)COCCOCCNC(=O)COCCOCCNC(=O)CC[C@H](NC(=O)CCCCCCCCCCCCCCCCC(=O)O)C(=O)O)C(=O)NCC(=O)NCC(=O)N[C@@H](CO)C(=O)N[C@@H](CCCCNC(=O)[C@H](CCCCNC(=O)[C@H](CCCCNc1c(NCCCCCN(O)C(=O)CCC(=O)NCCCCCN(O)C(=O)CCC(=O)NCCCCCN(O)C(C)=O)c(=O)c1=O)Nc1c(NCCCCCN(O)C(=O)CCC(=O)NCCCCCN(O)C(=O)CCC(=O)NCCCCCN(O)C(C)=O)c(=O)c1=O)NC(=O)[C@H](CCCCNc1c(NCCCCCN(O)C(=O)CCC(=O)NCCCCCN(O)C(=O)CCC(=O)NCCCCCN(O)C(C)=O)c(=O)c1=O)Nc1c(NCCCCCN(O)C(=O)CCC(=O)NCCCCCN(O)C(=O)CCC(=O)NCCCCCN(O)C(C)=O)c(=O)c1=O)C(=O)O)C(C)C [zirconium-89 labelled]	ex vivo gamma counting	Sprague-Dawley rat, male, bone marrow	intravenous, 1 nmol, 24 h		tissue uptake	2.06 %ID/g and 2.52 %ID/g and 1.91 %ID/g and 2.03 %ID/g and 2.76 %ID/g
C[C@]12CC[C@H](n3ccnc3)CC1=CC[C@@H]1[C@@H]2CC[C@]2(C)C(n3cnc4ccccc43)=CC[C@@H]12.Cl		CD-1 mice, male, plasma	oral, 10 mg/kg	baseline: intravenous 1 mg/kg	oral bioavailability	131%
CC(C)[C@@H]1NC(=O)CNC(=O)[C@H](CC(N)=O)NC(=O)[C@H](CCCNC(=N)N)NC(=O)[C@H](Cc2ccc(O)cc2)NC(=O)[C@H](C(C)C)NC(=O)[C@@H](NC(=O)[C@@H](NC(=O)[C@H](CC(N)=O)NC(=O)[C@H](Cc2c[nH]c3ccccc23)NC(=O)[C@H](C)NC(=O)[C@H](Cc2ccccc2)NC(=O)CN)C(C)C)CSSC[C@@H](C(=O)N[C@@H](Cc2cnc[nH]2)C(=O)N[C@@H](CCCNC(=N)N)C(=O)N[C@@H](CCCNC(=N)N)C(=O)N[C@@H](C)C(=O)N[C@@H](CC(N)=O)C(N)=O)NC(=O)[C@H](C(C)C)NC(=O)[C@H](CCCNC(=N)N)NC1=O		ICR mice, serum	intraperitoneal, 10 mg/kg, day 5		ALT	50.8 ± 1.9 IU/L
Nc1nc2cc(-c3ccc4ncc(C(=O)N5CCOCC5)n4c3)ccc2o1		human, advanced solid tumours	concentration not given		respiratory failure adverse events	6%
CNC(=O)c1cc(Oc2ccc(NC(=O)Nc3cc(C(C)(C)C)nn3-c3ccc4ncccc4c3)c(F)c2)ccn1	any related SAE, NCI CTC v3.0	human patients	oral, all dose levels		related SAE	32%
COc1cc2c(Oc3ccc4[nH]c(C)cc4c3F)ccnc2cc1OCC1(N)CC1		paediatric recurrent refractory sarcoma	10 mg		grade 1 or 2 sinus tachycardia	0%
COc1ncccc1-c1cnn2ccc(N3CCN(C(=O)OC(C)C)CC3)nc12		rat, plasma	oral, 30 mg/kg, 1.5 h, together with: saline		concentration	2100 nM
COc1ccc2nc3cc(Cl)ccc3c(Nc3cc(CN4CCCC4)c(O)c(CN4CCCC4)c3)c2n1		mouse, blood	intraperitoneal, 57 mg/kg		red cell distribution width (SD)	26.3 fL
Cn1cc(-c2nc(N[C@@H]3CCCC[C@@H]3N)c(F)c3c2C(=O)NC3)cn1	any bleeding	patients with relapsed or refractory AML	oral, 100 mg once daily		adverse events	71%
CCc1ccc(CC/C=C/c2ccc3c(c2)C(=O)CC3)cc1		Sprague-Dawley rat, male	oral, 450 mg/kg/day, 14 days		TG	0.36 mM
CC(C)=CC1C(C(=O)OC(C#N)c2cccc(Oc3ccccc3)c2)C1(C)C (centres unmarked)	item: CYP2C9	human, age 6 months			enzyme contribution to clearance	7.65%

Compound	test	test system	conditions	scale	measurement	result
COc1cc(C(=O)NC2CCN(C)CC2)c(F)cc1Nc1ncc(C(F)(F)F)c(Oc2cccc3c2C(=O)N(C)C3)n1		human patients, urine	oral, 50 mg single dose, geometric mean	baseline: dose	fraction excreted in urine (0-24 h)	3.98%
S=c1oc(-c2ccccc2)nn1CN1CCN(Cc2ccccc2)CC1		Wistar rat female	oral, 100 mg/kg, acute toxicity OECD 423		serum AST	123 ± 13.4 U/L
C[C@H]1COCCN1c1nc(NCc2cccnc2C(F)(F)F)c2cccnc2n1		BALB/c mouse	oral, 10 mg/kg		oral bioavailability	84%
O=C(Nc1ccccc1)C1CCN(C(=O)Oc2cccnc2)CC1	adverse event reporting	healthy women	oral, 20 mg		subjects with tremor	0%
Cc1cccc(-c2cccc(C)n2)n1.Cc1cccc(-c2cccc(C)n2)n1.F[P-](F)(F)(F)(F)F.F[P-](F)(F)(F)(F)F.[Ru+2].c1ccc2cc(-c3nc4c5cccnc5c5ncccc5c4[nH]3)ccc2c1		aerated acetonitrile	298 K	baseline: Ru(bpy)3(PF6)2	singlet oxygen quantum yield	0
CC(C)(O)c1cc(Nc2cc(Oc3cn(C4CC4)nc3C3CCOCC3)ccn2)ccn1	item: Anemia	Japanese patients with advanced cancer	oral, dose not given, any grade		treatment-emergent adverse events	33%
CO[C@H]1C[C@@H]2CC[C@@H](C)[C@@](O)(O2)C(=O)C(=O)N2CCCC[C@H]2C(=O)O[C@H]([C@H](C)C[C@@H]2CC[C@@H](OC(=O)NCCOCCOCCOCCOCCOCCOCCOCCOCCC(=O)N3CCc4cc(Cn5nc(-c6ccc7oc(N)nc7c6)c6c(N)ncnc65)ccc4C3)[C@H](OC)C2)C[C@@H](O)[C@H](C)/C=C(\C)[C@@H](O)[C@@H](OC)C(=O)[C@H](C)C[C@H](C)/C=C/C=C/C=C/1C	phase 1 dose escalation, item: diarrhoea	advanced solid tumour patients	intravenous, 8 mg weekly, grade ≥3		TRAE incidence	0%
CCCCCCCCCCCCCCCC(=O)N[C@@H](CCC(=O)NCCCC[C@H](NC(=O)[C@H](CC(=O)O)NC(=O)[C@H](CO)NC(=O)[C@@H](NC(=O)[C@H](Cc1ccccc1)NC(=O)[C@@H](NC(=O)CNC(=O)[C@H](CCC(N)=O)NC(=O)[C@H](CO)NC(=O)[C@@H](N)Cc1c[nH]cn1)[C@@H](C)O)[C@@H](C)O)C(=O)N[C@@H](CO)C(=O)N[C@@H](CCC(=O)O)C(=O)N[C@@H](Cc1ccc(O)cc1)C(=O)N[C@@H](CC(C)C)C(=O)N[C@@H](CC(=O)O)C(=O)N[C@@H](CO)C(=O)N[C@@H](CCC(=O)O)C(=O)N[C@@H](CCCNC(=N)N)C(=O)N[C@@H](C)C(=O)N[C@@H](CCCNC(=N)N)C(=O)N[C@@H](CC(=O)O)C(=O)N[C@@H](Cc1ccccc1)C(=O)N[C@H](C(=O)N[C@@H](C)C(=O)N[C@@H](Cc1c[nH]c2ccccc12)C(=O)N[C@@H](CC(C)C)C(=O)N[C@@H](CCC(=O)O)C(=O)N[C@@H](C)C(=O)NCC(=O)NCC(=O)O)C(C)C)C(=O)O	item: Dizziness	humans all renal groups	subcutaneous, 100 µg single dose		treatment-related adverse events	2.7%
CCC[C@@](N)(CO)CCc1ccc(OCCCCCC(C)C)cc1		dog, male hounds, plasma	oral capsule, 5 mg/kg, median		half-life	13.6 h
O=C1Nc2cc3[nH]nc(-c4ccncc4)c3cc2CN1Cc1ccccc1	CTCAE v4.03	advanced solid tumour patients	intravenous, 0.9 mg/kg, schedules 1/2		patients with blurred vision	0%
CCN1CCN(Cc2ccc(Nc3ncc(F)c(-c4cc(F)c5nc6n(c5c4)[C@H](C)CCC6)n3)nc2)CC1	Phase Ia dose escalation	patients with advanced solid tumours	dose not given, monotherapy, grade ≥3		creatinine renal clearance decreased	4.2%
[O-][S+]1CCc2nc(N3CCC(c4ncc(Cl)cn4)CC3)nc(NC3(CO)CCC3)c21 (centres unmarked)		idiopathic pulmonary fibrosis patients	18 mg twice daily		Bronchitis adverse events	10%
CC(C)C[C@H](NC(=O)[C@H](CCC(N)=O)NC(=O)[C@H](CO)NC(=O)[C@H](CO)NC(=O)[C@H](CCCNC(=N)N)NC(=O)[C@H](CCCNC(=N)N)NC(=O)[C@H](CCCNC(=N)N)NC(=O)[C@H](CC(C)C)NC(=O)[C@H](Cc1c[nH]cn1)NC(=O)[C@@H](NC(=O)[C@H](CCCCN)NC(=O)[C@H](CCCNC(=N)N)NC(=O)[C@H](CCCNC(=N)N)NC(=O)[C@H](CCCNC(=N)N)NC(=O)[C@H](CCC(N)=O)NC(=O)[C@H](CCCNC(=N)N)NC(=O)[C@H](CCCNC(=N)N)NC(=O)[C@H](CCCCN)NC(=O)[C@H](CCCCN)NC(=O)[C@H](CCCNC(=N)N)NC(=O)CNC(=O)[C@@H](N)Cc1ccc(O)cc1)[C@@H](C)O)C(=O)N[C@@H](CCCCN)C(N)=O	flinch-jump test	rat	intra-CA1 bilateral, dose not given		jump threshold	no effect
COc1cccc(Oc2ccccc2NC(=O)CNC(=O)c2cccc3ccccc23)c1		esterase-deficient SCID mice, male	oral, 100 mg/kg/day, 14 days, toxicity study		blood urea nitrogen	29 mg/dL and 27 mg/dL and 33 mg/dL
CC(C)(c1ccccc1)c1cc(-n2nc3ccccc3n2)c(O)c(C(C)(C)c2ccccc2)c1	exposure assessment	human, age 16-21 years	cream		mean daily dermal uptake	0.77 ng/kg body weight/day
C[C@]1(CO)Cc2ncn(-c3ccc(C#N)c(Cl)c3)c2C(=O)O1		human, Chinese, plasma	3 mg single dose, geometric mean		Cmax	173 nM
c1ccc2c(c1)ccc1c3ccccc3ccc21	metabolism	pooled human liver microsomes	pH 7.4		Km	0.055 µM and < 0.1 µM
C[C@@H](NC(=O)N1C(=O)[C@H](Cc2ccnc(N)c2)[C@H]1C(=O)O)C1CCCCC1		healthy adult Chinese volunteers	continuous intravenous infusion, 1.0 mg/kg/h, 5-day infusion, CTCAE 5.0 grading		incidence of elevated blood uric acid	0%
CCCC(CCC)NC(=O)c1ccc2c(c1)OCO2		Swiss albino CD-1 mice, male, bone marrow	intraperitoneal, 175 mg/kg, 24 h		PCE/NCE ratio	0.9
